Results gathered from unrelated publications.
Numbered parts are unrelated; each lists some results of a single study.

Study 1
Target: RNA binding protein fox-1 homolog 2, RRM domain, GST-SBP tag (RBFOX2, Homo sapiens, UniProt O43251-10, residues 100-194)
Method: RNA Bind-n-Seq
Form: RNA
Medium: in vitro
Tested at: 365 nM
Notes: natural RNA segment, single round, ends assumed
Reference: no-protein control
Direction: higher = stronger binding
Constant ends, left off below: GGGAGUUCUACAGUCCGACGAUC … UGGAAUUCUCGGGUGCCAA
Residues (chain): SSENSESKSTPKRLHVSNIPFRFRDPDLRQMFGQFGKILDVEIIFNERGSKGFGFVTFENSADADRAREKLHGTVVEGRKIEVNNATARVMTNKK
Sequence	RBNS enrichment (R)
AUGCAUGAGGCCAAGAAACUAGCCAAGCUUCCCUUUAGGGGCAUUUGAGCUCUGGGGAGAAAGGAUAUGAGGAGUCUACACUGACCUUCCACUUCUUUUUUCACCCAGUU	28
GUCAAAGGAAAUCCCUUUCUUGGUGACGACUUAAAUCUGGGUUCCCUCAGACAUUGGGUUGCACCCCAACAAAUAUUAAAUGGCUUCUUCUUAAAGCCCAGAGAAAGAGG	0.736
UCCUCCUGGAAUAUGUACGGAUGGAAGUCUUGGUUGAAGCAGGUUCCCCUGGGAAGUGCUCUCAGCAGGCCUUGCGGAGCAGAGCAGAGCUGGGCAGAGCUGACUCCUGC	0.465
UCUGUUUCUGCAGGCAAGGGACAGCGAGGGCUGAGCAUUGGCCUGUAUAAUCUGGUCAGCUUGGACAAUUCCUGCCUCAUUUCCUAUUAAUGUUAGUUUGGAUAAAAAUA	0.403
UUGUUUGUUUUGCCGCCCUGGACACAUGUUUGCCUCCUCCAAGAAUUUCUGCGGGGAUUUGUAUCCCAUGCCUUCGUCUUCUCCUCCCCGUCCAACUCCCUGGAGACCCU	4.39
CAAAAUGUCUUAAUGCAAAUUUUGUAUUUCUUACAGGCCUACAGAAAUUGAAAAUGACCAAAAUCAGGAACCACAGAUUUGUGCCCAUUCCUAAUAUUUUGUUCUGCAAA	0.36
GCCCCACCCUUACCGGACACUGGGAAGAACUGUUGGCCCCUAGAAACCAAAGGCCAAACUGAGGCUGCCCUGAGUUGGAAGACCACUUUCUGAAAUGCCCAUGGACUCUG	0.396

Study 2
Target: Histone acetyltransferase KAT6A, winged helix 2, GST fusion (KAT6A, Homo sapiens, UniProt Q92794, residues 85-181)
Method: protein binding microarray
Form: double-stranded DNA, one strand shown
Medium: in vitro
Tested at: not given
Notes: 8-mer, flanks averaged, mean of 2 arrays, mostly near background
Reference: not given
Direction: higher = stronger binding
Residues (chain): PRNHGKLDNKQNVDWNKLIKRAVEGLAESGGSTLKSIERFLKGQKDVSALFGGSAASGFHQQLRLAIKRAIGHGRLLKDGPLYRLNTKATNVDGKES
Sequence	E-score
ATACTACA	0.0225
AACATGTT	-0.0772
ACCCTACA	-0.0924
TCTCCACA	0.00585

Study 3
Target: Sal-like protein 4, full length isoform A (SALL4, Homo sapiens, UniProt Q9UJQ4, residues 1-1053)
UniProt Q9UJQ4, sequence (whole entry, looked up): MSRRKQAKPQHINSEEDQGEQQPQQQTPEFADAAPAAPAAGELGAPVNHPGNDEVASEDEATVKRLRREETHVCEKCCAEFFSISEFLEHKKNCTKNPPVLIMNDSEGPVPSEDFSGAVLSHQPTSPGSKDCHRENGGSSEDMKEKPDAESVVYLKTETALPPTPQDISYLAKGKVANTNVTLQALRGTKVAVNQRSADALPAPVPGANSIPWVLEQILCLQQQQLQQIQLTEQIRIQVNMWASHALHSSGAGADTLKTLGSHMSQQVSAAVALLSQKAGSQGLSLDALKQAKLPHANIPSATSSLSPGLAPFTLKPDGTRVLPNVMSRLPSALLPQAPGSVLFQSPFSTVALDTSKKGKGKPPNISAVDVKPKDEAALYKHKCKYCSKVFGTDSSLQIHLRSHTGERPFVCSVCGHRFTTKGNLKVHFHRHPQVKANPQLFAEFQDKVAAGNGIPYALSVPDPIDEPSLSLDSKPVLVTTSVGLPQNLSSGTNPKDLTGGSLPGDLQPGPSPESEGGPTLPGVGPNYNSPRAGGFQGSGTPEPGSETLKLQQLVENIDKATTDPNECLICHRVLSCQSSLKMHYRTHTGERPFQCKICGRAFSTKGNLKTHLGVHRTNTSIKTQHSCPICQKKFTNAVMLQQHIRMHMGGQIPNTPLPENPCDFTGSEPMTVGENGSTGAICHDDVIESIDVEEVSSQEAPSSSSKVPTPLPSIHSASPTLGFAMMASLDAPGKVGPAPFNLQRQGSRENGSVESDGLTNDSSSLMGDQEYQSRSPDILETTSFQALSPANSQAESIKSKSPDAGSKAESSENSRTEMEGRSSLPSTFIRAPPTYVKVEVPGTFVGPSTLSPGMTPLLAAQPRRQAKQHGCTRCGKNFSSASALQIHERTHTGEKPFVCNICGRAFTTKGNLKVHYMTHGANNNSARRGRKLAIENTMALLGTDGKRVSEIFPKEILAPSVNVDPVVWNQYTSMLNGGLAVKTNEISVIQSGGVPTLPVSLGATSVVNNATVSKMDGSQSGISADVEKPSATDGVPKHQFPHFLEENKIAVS
Method: universal PBM
Form: double-stranded DNA, one strand shown
Medium: in vitro
Tested at: 600 nM
Notes: 8-mer, flanks averaged, mean of replicates
Direction: higher = stronger binding
Sequence	E-score
ACACGCTC	-0.0607
ACGTGTCC	-0.264
GATCCTAC	-0.117
CCATCACG	-0.0521
AAGACAGG	0.036
GTAAAGAC	0.0018

Other studies, line by line
Substance	target	test	test system	conditions	how to read	endpoint	result
PhoQ, residues 284 288 289 292 302 303 TNSAEL	PhoP, residues 12 14 15 18 19 LYFRQ (Escherichia coli, UniProt P23836)	Sort-seq, refers to: YFP reporter	E. coli	PhoQ-PhoP variant library, added: 10 µM Mg2+	reference: high Mg2+ state, higher = stronger signaling	fold induction	15
